Measurements from different studies.
Lines come from different studies, so protocols differ. ± marks the error that the study gave.
Urease: Urease (Canavalia ensiformis, UniProt P07374)
Sequence of UniProt P07374 (whole entry, looked up): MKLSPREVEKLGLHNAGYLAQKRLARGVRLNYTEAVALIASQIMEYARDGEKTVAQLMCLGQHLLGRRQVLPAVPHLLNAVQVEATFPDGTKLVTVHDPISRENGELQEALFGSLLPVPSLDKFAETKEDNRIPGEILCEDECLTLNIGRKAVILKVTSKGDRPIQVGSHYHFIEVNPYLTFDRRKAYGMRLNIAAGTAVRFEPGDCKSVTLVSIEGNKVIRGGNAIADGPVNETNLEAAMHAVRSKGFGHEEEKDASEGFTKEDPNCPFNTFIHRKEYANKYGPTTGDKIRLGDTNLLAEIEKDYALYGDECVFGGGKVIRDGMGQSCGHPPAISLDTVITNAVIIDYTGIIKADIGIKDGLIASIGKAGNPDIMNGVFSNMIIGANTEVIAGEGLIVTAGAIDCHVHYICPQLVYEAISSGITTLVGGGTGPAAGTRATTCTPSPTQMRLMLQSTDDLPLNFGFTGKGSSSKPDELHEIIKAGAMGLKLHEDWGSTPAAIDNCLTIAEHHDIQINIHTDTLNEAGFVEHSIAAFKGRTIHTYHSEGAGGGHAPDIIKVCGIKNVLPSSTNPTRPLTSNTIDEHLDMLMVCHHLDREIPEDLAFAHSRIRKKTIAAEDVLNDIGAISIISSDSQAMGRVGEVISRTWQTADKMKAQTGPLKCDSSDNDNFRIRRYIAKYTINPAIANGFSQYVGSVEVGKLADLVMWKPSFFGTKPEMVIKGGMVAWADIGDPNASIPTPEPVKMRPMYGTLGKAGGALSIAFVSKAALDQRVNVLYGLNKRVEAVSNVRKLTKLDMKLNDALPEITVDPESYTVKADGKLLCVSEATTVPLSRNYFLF
CDK8: Cyclin-dependent kinase 8 (CDK8, Homo sapiens, UniProt P49336)
Sequence of UniProt P49336 (whole entry, looked up): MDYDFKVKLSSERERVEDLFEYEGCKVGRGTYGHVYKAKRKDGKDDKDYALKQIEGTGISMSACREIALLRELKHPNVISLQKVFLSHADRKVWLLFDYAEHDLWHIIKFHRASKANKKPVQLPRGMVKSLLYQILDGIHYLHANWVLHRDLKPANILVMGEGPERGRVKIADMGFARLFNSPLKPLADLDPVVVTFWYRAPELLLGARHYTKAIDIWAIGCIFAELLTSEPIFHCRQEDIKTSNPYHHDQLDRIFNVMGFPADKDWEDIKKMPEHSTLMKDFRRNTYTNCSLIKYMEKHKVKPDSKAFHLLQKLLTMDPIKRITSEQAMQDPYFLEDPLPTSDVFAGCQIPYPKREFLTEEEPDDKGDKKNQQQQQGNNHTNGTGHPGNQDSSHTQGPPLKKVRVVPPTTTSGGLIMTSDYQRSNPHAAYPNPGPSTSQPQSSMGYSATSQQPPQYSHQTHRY
Replicase polyprotein 1ab main protease: Replicase polyprotein 1ab, main protease (Feline coronavirus, UniProt Q98VG9)
CDK2 with cyclin A: Cyclin-dependent kinase 2, with cyclin A (CDK2, Homo sapiens, UniProt P24941)
crk3: crk3 (Leishmania mexicana, UniProt O15851)
Replicase polyprotein 1a 3C-like proteinase: Replicase polyprotein 1a, 3C-like proteinase (Ferret coronavirus, UniProt A0A172B201)
Plasmepsin X: Plasmepsin X (Plasmodium falciparum, UniProt Q8IAS0)
Sequence of UniProt Q8IAS0 (whole entry, looked up): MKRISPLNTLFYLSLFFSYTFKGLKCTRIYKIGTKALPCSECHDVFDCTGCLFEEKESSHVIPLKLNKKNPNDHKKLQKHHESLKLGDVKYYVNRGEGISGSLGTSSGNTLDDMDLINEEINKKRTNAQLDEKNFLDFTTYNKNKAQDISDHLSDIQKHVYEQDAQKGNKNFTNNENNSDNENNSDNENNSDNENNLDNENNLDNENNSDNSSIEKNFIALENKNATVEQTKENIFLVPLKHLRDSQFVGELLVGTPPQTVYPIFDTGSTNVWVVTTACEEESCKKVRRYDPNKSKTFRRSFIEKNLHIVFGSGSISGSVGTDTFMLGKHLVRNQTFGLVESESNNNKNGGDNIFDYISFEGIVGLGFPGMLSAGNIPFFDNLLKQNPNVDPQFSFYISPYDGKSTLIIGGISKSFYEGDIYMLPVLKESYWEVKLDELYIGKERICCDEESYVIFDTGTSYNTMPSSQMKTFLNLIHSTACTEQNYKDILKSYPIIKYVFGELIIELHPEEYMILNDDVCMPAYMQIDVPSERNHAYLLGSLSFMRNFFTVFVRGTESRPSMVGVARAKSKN
MED23 with ELF3: Mediator of RNA polymerase II transcription subunit 23, with ELF3 (MED23, Homo sapiens, UniProt Q9ULK4)
Sequence of UniProt P18031 (whole entry, looked up): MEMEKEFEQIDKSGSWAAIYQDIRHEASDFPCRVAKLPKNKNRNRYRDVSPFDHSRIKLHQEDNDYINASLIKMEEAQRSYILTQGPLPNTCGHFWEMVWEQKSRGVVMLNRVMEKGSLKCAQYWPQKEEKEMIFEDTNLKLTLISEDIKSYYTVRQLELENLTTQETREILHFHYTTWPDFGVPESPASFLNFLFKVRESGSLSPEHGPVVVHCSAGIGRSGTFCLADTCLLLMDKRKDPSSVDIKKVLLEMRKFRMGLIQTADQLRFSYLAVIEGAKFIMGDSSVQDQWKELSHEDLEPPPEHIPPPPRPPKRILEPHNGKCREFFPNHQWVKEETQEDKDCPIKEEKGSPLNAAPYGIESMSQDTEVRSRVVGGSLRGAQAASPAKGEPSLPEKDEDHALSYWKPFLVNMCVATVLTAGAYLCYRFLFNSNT
Sequence of UniProt P00797 (whole entry, looked up): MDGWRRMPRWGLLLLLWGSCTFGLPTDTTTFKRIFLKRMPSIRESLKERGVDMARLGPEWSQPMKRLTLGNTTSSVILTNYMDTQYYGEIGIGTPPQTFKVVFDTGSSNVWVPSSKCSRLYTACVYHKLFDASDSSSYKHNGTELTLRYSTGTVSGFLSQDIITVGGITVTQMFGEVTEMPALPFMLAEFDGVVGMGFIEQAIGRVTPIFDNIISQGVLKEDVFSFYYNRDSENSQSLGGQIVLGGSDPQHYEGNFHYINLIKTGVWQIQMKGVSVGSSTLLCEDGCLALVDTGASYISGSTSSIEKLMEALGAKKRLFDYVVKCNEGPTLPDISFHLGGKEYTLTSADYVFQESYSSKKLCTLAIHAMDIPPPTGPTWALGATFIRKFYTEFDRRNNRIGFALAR

SMILES = CCN(CC)c1ccc(C2CC(c3ccccc3O)=NN2c2ccccc2)cc1 (centres unmarked); target = Urease; test = enzyme activity, inhibitor, absorbance; conditions = pH 8.2; IC50 = 13.3 µM
SMILES = O=C1Nc2ccc(S(=O)(=O)Nc3ccccc3)cc2C1=C1CCCC1; target = CDK8; test = enzyme activity, inhibitor, FRET; IC50 = 0.558 µM
SMILES = CC(C)C[C@H](NC(=O)OCc1ccccc1)C(=O)N[C@@H](C[C@@H]1CCNC1=O)C(=O)C(=O)NC1CCCCC1; target = Replicase polyprotein 1ab main protease; test = enzyme activity, inhibitor, FRET; IC50 = 1.41 µM
SMILES = Cc1cccc(-c2ccc3nc(NC(=O)CC4CCCCC4)nn3c2)c1; target = CDK2 with cyclin A; test = enzyme activity, inhibitor; IC50 = > 100 µM
SMILES = CCOc1ccc(NS(=O)(=O)c2ccc3c(c2)C(=C(C)C)C(=O)N3)cc1; target = CDK8; test = enzyme activity, inhibitor, FRET; IC50 = > 10 µM
SMILES = Cc1cccc(-c2ccc3nc(NC(=O)c4ccccc4)nn3c2)c1; target = crk3; test = enzyme activity, inhibitor, radiometric; IC50 = 1.1 µM
SMILES = O=C[C@H](C[C@@H]1CCNC1=O)NC(=O)[C@H](CC1CCCCC1)NC(=O)OCc1cccc(Cl)c1; target = Replicase polyprotein 1a 3C-like proteinase; test = enzyme activity, FRET; system = NL-2010; IC50 = 0.98 ± 0.36 µM
SMILES = O=C(Nc1cc(-c2ccccc2)n[nH]1)C1COc2ccccc2O1 (centres unmarked); target = crk3; test = enzyme activity, inhibitor, radiometric; IC50 = 0.65 µM
SMILES = Oc1ccccc1C1=NN(c2ccccc2)C(c2ccc(F)cc2)C1 (centres unmarked); target = Urease; test = enzyme activity, inhibitor, absorbance; conditions = pH 8.2; IC50 = 13.5 µM
SMILES = CC(C)C[C@H](NC(=O)[C@@H](NC(=O)[C@H](CCONC(=N)N)NC(=O)OCc1ccccc1)C1CCCCC1)[C@@H](O)CC(=O)NCCc1ccccc1; target = Plasmepsin X; test = enzyme activity, inhibitor; IC50 = > 99 µM
SMILES = CC(C)C[C@H](NC(=O)OCc1ccccc1)C(=O)N[C@@H](C[C@@H]1CCNC1=O)C(O)S(=O)(=O)O (some centres unmarked); target = Replicase polyprotein 1a 3C-like proteinase; test = enzyme activity, FRET; system = NL-2010; IC50 = 1.33 ± 0.19 µM
SMILES = COc1cccc(NS(=O)(=O)c2ccc3c(c2)C(=C(C)C)C(=O)N3)c1; target = CDK8; test = enzyme activity, inhibitor, FRET; IC50 = > 10 µM
SMILES = O=C[C@H](C[C@@H]1CCNC1=O)NC(=O)[C@H](CC1CCCCC1)NC(=O)OCc1ccccc1; target = Replicase polyprotein 1ab main protease; test = enzyme activity, inhibitor, FRET; IC50 = 0.69 µM
SMILES = CC(C)C[C@H](NC(=O)[C@@H](NC(=O)[C@H](CCCNC(=N)N)NS(=O)(=O)Cc1ccccc1)C(C)C)[C@@H](O)CC(=O)NCCc1ccccc1; target = Plasmepsin X; test = enzyme activity, inhibitor; IC50 = 0.99 µM
SMILES = Brc1ccccc1Nc1ncnc2[nH]ncc12; target = CDK2 with cyclin A; test = enzyme activity, inhibitor; IC50 = 1 µM
SMILES = O=C(C=Cc1ccc(Cl)cc1)c1ccccc1O; target = MED23 with ELF3; test = SEAP reporter gene, inhibitor; IC50 = 3.93 ± 0.74 µM
SMILES = CC(C)C[C@H](NC(=O)[C@@H](NC(=O)[C@H](CCONC(=N)N)NC(=O)OCc1ccccc1)C(C)C)[C@@H](O)CC(=O)NCCc1ccccc1; target = Renin (REN, Homo sapiens, UniProt P00797); test = enzyme activity, inhibitor; IC50 = > 1 µM
SMILES = CC(C)=C1C(=O)Nc2ccc(S(=O)(=O)Nc3ccc(Cl)cc3)cc21; target = CDK8; test = enzyme activity, inhibitor, FRET; IC50 = 2.57 µM
SMILES = Oc1ccccc1C1=NN(c2ccccc2)C(c2cccc(C(F)(F)F)c2)C1 (centres unmarked); target = Urease; test = enzyme activity, inhibitor, absorbance; conditions = pH 8.2; IC50 = 18.4 µM
SMILES = O=C(Nc1nc2ccccn2n1)C1CCCCC1; target = crk3; test = enzyme activity, inhibitor, radiometric; IC50 = > 100 µM
SMILES = O=C(N[C@@H](CC1CCCCC1)C(=O)N[C@@H](C[C@@H]1CCNC1=O)C(=O)C(=O)NC1CC1)OCc1cccc(Cl)c1; target = Replicase polyprotein 1a 3C-like proteinase; test = enzyme activity, FRET; system = NL-2010; IC50 = > 50 µM
SMILES = Cc1ccc(NC(=O)Nc2ccnc(-c3cccnc3)n2)cc1; target = crk3, with CYC6 (Leishmania mexicana, UniProt O15851); test = inhibitor, IMAP fluorescence polarisation; conditions = added: ATP 100 µM; IC50 = 1.5 µM
SMILES = CC(C)(O)CC(=O)CC(C(=O)O)C1CC[C@]2(C)C1CCC1[C@@]3(C)CC[C@H](O)C(C)(C)C3CC[C@]12C (some centres unmarked); target = PTPN1 (Homo sapiens, UniProt P18031); test = enzyme activity, inhibitor, absorbance; IC50 = 4.26 µM
SMILES = O=C[C@H](C[C@@H]1CCNC1=O)NC(=O)[C@H](CC1CCCCC1)NS(=O)(=O)c1ccc(Cl)cc1; target = Replicase polyprotein 1ab main protease; test = enzyme activity, inhibitor, FRET; IC50 = 10.1 µM
SMILES = COc1ccc(C=CC(=O)c2ccccc2O)cc1; target = MED23 with ELF3; test = SEAP reporter gene, inhibitor; IC50 = 1.98 ± 0.34 µM
SMILES = CC(C)C[C@H](NC(=O)OCc1cccc(Cl)c1)C(=O)N[C@H](C=O)C[C@@H]1CCNC1=O; target = Replicase polyprotein 1ab main protease; test = enzyme activity, inhibitor, FRET; IC50 = 0.88 µM
SMILES = COc1ccc(C=CC(=O)c2ccccc2O)c2ccccc12; target = MED23 with ELF3; test = SEAP reporter gene, inhibitor; IC50 = 2.39 ± 0.36 µM
SMILES = O=C(N[C@@H](CC1CCCCC1)C(=O)N[C@@H](C[C@@H]1CCNC1=O)C(O)S(=O)(=O)O)OCc1ccccc1 (some centres unmarked); target = Replicase polyprotein 1a 3C-like proteinase; test = enzyme activity, FRET; system = NL-2010; IC50 = 1.04 ± 0.28 µM
SMILES = Cc1cccc(-c2ccc3nc(NC(=O)CC4CCCC4)nn3c2)c1; target = crk3; test = enzyme activity, inhibitor, radiometric; IC50 = 0.04 µM
SMILES = O=C(C=Cc1ccc(Cl)cc1)c1cccc(O)c1; target = MED23 with ELF3; test = SEAP reporter gene, inhibitor; IC50 = 2.97 ± 0.04 µM
SMILES = CN(C)c1ccc(C2CC(c3ccccc3O)=NN2c2ccccc2)cc1 (centres unmarked); target = Urease; test = enzyme activity, inhibitor, absorbance; conditions = pH 8.2; IC50 = 15.6 µM
SMILES = CC(=O)Nc1nc2ccc(-c3cccc(C)c3)cn2n1; target = CDK2 with cyclin A; test = enzyme activity, inhibitor; IC50 = 26 µM

Excerpt of the above:
SMILES = O=C(Nc1cc(-c2ccccc2)n[nH]1)C1COc2ccccc2O1 (centres unmarked); target = crk3; test = enzyme activity, inhibitor, radiometric; IC50 = 0.65 µM
SMILES = CC(C)C[C@H](NC(=O)OCc1cccc(Cl)c1)C(=O)N[C@H](C=O)C[C@@H]1CCNC1=O; target = Replicase polyprotein 1ab main protease; test = enzyme activity, inhibitor, FRET; IC50 = 0.88 µM
SMILES = O=C[C@H](C[C@@H]1CCNC1=O)NC(=O)[C@H](CC1CCCCC1)NC(=O)OCc1cccc(Cl)c1; target = Replicase polyprotein 1a 3C-like proteinase; test = enzyme activity, FRET; system = NL-2010; IC50 = 0.98 ± 0.36 µM
